# Published values from different studies.
# Lines come from different studies, so protocols differ. ± marks the error that the study gave.
SMILES,cell line,test,conditions,how to read,measurement,value
C[C@@H]1N=C(c2ccccc2)c2cc(C#CCCCC(=O)NO)ccc2N(C)C1=O,NB4,annexin V/PI flow cytometry,"2.5 µM, 48 h",,apoptotic cells,~90%
CNC(=O)c1cc(Oc2ccc(NC(=O)c3cc(-c4ccccc4OC(=O)CCC(=O)OC4OC5OC6(C)CCC7C(C)CCC(C4C)C57OO6)ccn3)cc2)ccn1 (centres unmarked),Hep3B and LO2,"cell viability, MTT",72 h,baseline: IC50 LO2 over IC50 Hep3B,selectivity ratio,6.9
CC/C=C\C/C=C\C/C=C\C/C=C\C/C=C\C/C=C\CCC(=O)Nc1ccn(C2OC(CO)C(O)C2(F)F)c(=O)n1 (centres unmarked),IGROV-1,NCI60 screen,,,CC50,55.3 µM
CC(C)CC(O)(CC(C)C)c1cn(C(=O)N2CCCC2)nn1,mouse T-cells,"N-terminal labelling enrichment, measured: S100A6 N-terminal peptides","1 nM, 6 h, protein median",baseline: DMSO,SILAC ratio,3.93 ± 0.33
O=C(CN1C(=O)S/C(=C\c2ccccc2Br)C1=O)Nc1ccc(C(=O)Nc2ccc(F)cc2)cc1,HT-29,MTT,,baseline: IC50 Vero over IC50 HT-29,selectivity index,22.1
C#CCCCNCCNc1ccnc2cc(Cl)ccc12,MOLT-4,"cell growth or viability, resazurin","10 µM, 48 h",,inhibition,0%
[Cl-].[Cl][Ru-4]123([n+]4ccccc4-c4cccc([n+]41)-c1cccc[n+]12)[n+]1ccc(-c2ccccc2)c2ccc4c(-c5ccccc5)cc[n+]3c4c21,HEL 299 and A549,resazurin,,baseline: IC50 HEL 299 over A549,selectivity index,4.9
F[P-](F)(F)(F)(F)F.OCP(CO)CO.OCP(CO)CO.OCP(CO)CO.OCP(CO)CO.[Cu+],CCD-18Co,clonogenic,"6 h, 12 days colony growth",,colony formation,no effect
NC1CCCCC1N.O=C1[O][Pt]([O]C(=O)c2ccc(P(c3ccccc3)c3ccccc3)cc2)([O]C(=O)c2ccc(P(c3ccccc3)c3ccccc3)cc2)[O]C1=O.[Cl][Au].[Cl][Au],HUVEC,tube formation,"IC10, 16 h",,tube node disruption,34%
CC12CCC3(CCC(=O)OCCNc4ccnc5cc(Cl)ccc45)C(C)(OOC3(C)O1)O2,RPMI-8226,"cell growth or viability, resazurin","10 µM, 48 h",,inhibition,31.9%
CC(=O)N[C@@H](CCCNC(=N)N)C(=O)N[C@@H](CCCNC(=N)N)C(=O)N[C@@H](CCCNC(=N)N)C(=O)N[C@@H](CCCNC(=N)N)C(=O)N[C@@H](CCCNC(=N)N)C(=O)N[C@@H](CCCNC(=N)N)C(=O)N[C@@H](CCCNC(=N)N)C(=O)N[C@@H](CCCNC(=N)N)C(=O)N[C@@H](CCCNC(=N)N)C(=O)N[C@@H](CCCNC(=N)N)C(=O)NCC(=O)N[C@@H](COP(=O)(O)O)C(=O)N1CCC[C@H]1C(=O)N[C@H](C(=O)N[C@@H](Cc1ccccc1)C(=O)O)[C@@H](C)O,HeLa,"DNA damage, immunostaining","10 µM, 30 min, added: ionizing radiation 20 Gy",,γH2AX-positive cells,85.5 ± 3.65%
CCN(CC)CCOc1ccc(-c2nnn(Cc3ccc(OC)cc3)c2N)cc1,HEI-193,,"concentration not given, 3 days",,cell proliferation,decreased
CCOC(=O)[C@H]1O[C@@H]1C(=O)N(CC(C)C)NC(=O)[C@H](C)NC(=O)[C@H](CCC(=O)O)NC(=O)OCc1ccccc1,HFF,inhibitor,"concentration not given, added: Vibrio cholerae supernatant, MARTX toxin",,actin crosslinking,inhibited
CCCC[C@H](NC(=O)[C@H](Cc1ccccc1)NC(=O)[C@H](Cc1c[nH]cn1)NC(=O)CCNC(=O)[C@@H](NC(=O)[C@H](C)NC(=O)[C@H](Cc1c[nH]c2ccccc12)NC(=O)[C@H](CCC(N)=O)NC(=O)[C@H](N)Cc1ccc(O)cc1)C(C)C)C(N)=O,NCI-H1299-BRS-3,clonogenic assay in agarose,10 nM,,colony number,75 ± 3
CCCCCCCCCCCCCC(=O)NCC(=O)N[C@@H](CCCNC(=N)N)C(=O)N[C@@H](Cc1c[nH]c2ccccc12)C(=O)N[C@@H](CCCCN)C(=O)N[C@H](C(=O)N[C@@H](Cc1ccccc1)C(=O)N[C@@H](CCCCN)C(=O)N[C@@H](CCCCN)C(=O)N[C@H](C(=O)N[C@@H](CCC(=O)O)C(=O)N[C@@H](CCCCN)C(=O)N[C@H](C(=O)NCC(=O)N[C@@H](CCC(N)=O)C(=O)N[C@@H](CC(N)=O)C(=O)N[C@H](C(=O)N[C@@H](CCCNC(=N)N)C(=O)N[C@@H](CC(=O)O)C(=O)NCC(=O)N[C@H](C(=O)N[C@H](C(=O)N[C@@H](CCCCN)C(=O)N[C@@H](C)C(=O)NCC(=O)N1CCC[C@H]1C(=O)N[C@@H](C)C(=O)N[C@H](C(=O)N[C@@H](C)C(=O)N[C@H](C(=O)N[C@H](C(=O)NCC(=O)N[C@@H](CCC(N)=O)C(=O)N[C@@H](C)C(=O)N[C@@H](C)C(=O)N[C@H](C(=O)N[C@H](C(N)=O)[C@@H](C)CC)[C@@H](C)O)C(C)C)C(C)C)C(C)C)C(C)C)[C@@H](C)CC)[C@@H](C)CC)C(C)C)[C@@H](C)CC)[C@@H](C)CC,K562/MDR,western blot,"concentration not given, 16 h",,Bax/Bcl-2 ratio,increased
COc1ccc(C(=O)CCl)cc1,AP1-luc HEK293,"AP1 reporter gene, activator, luciferase",added: FBS stimulation,baseline: control,fold increase,~4 fold
CC1OC2OC3C4=C(OC3(C)C12O)C(=O)c1c(O)cccc1C4=O (centres unmarked),HeLa and HFF,MTT,,baseline: CC50 HFF over EC50 HeLa,selectivity index,2.62
CC(=O)Oc1ccc(/C=C/C(=O)Nc2nc(=O)n([C@@H]3O[C@H](C)[C@@H](OC(C)=O)[C@H]3OC(C)=O)cc2F)cc1OC(C)=O,BXPC-3,"cell viability, MTT",,baseline: NHDF fibroblasts over BXPC-3,selectivity index,3.83
CSCC[C@@H](NC(=O)[C@@H](CC(C)C)NC(=O)CNC(=O)[C@@H](Cc1ccccc1)NC(=O)[C@@H](Cc1ccccc1)NC(=O)[C@@H](CCC(N)=O)NC(=O)[C@@H](CCC(N)=O)NC(=O)[C@H]1CCCN1C(=O)[C@@H](CCCCN)NC(=O)[C@H]1CCCN1C(=O)[C@H](N)CCCNC(=N)N)C(N)=O,rat mast cells,whole-cell patch-clamp capacitance,"25 to 200 µM, intracellular, 400 µM EGTA",,onset delay of degranulation,440 ± 100 s
CC[C@H](C)[C@H](NC(C)=O)C(=O)N[C@@H](CC(N)=O)C(=O)N[C@@H](Cc1c[nH]c2ccccc12)C(=O)N[C@@H](Cc1c[nH]cn1)C(=O)NCC(=O)N[C@H](C(=O)N[C@@H](C)C(=O)N[C@@H](Cc1c[nH]cn1)C(=O)N[C@@H](CCSC)C(=O)N[C@@H](C)C(=O)N[C@@H](CCCCN)C(=O)N[C@@H](CCCCN)C(=O)N[C@@H](CC(C)C)C(=O)N[C@@H](CC(C)C)C(N)=O)[C@@H](C)CC,human erythrocytes,,added: Zn(II) 300 µM,baseline: without metal,haemolytic potency ratio,8 fold
CNC(=O)c1cc(Oc2ccc(NC(=O)c3ccc(-c4ccc(OC(=O)CCC(=O)OC5OC6OC7(C)CCC8C(C)CCC(C5C)C68OO7)cc4)cn3)cc2)ccn1 (centres unmarked),Huh-7 and LO2,"cell viability, MTT",72 h,baseline: IC50 LO2 over IC50 Huh-7,selectivity ratio,14.5
O=C(O)CCC(NP(=O)(O)OCCC[C@@H](NC(=O)CCC(NC(=O)CCCCCNC(=O)CCCCCNC(=O)c1ccc([18F])cc1)C(=O)O)C(=O)O)C(=O)O (some centres unmarked),CWR22Rv1,,1 h,,surface-bound fraction,15.1 ± 3.88%
CCC(=O)CCC[C@H](C)C[C@H](NC(=O)[C@@H]1C[C@H](C)CN1C(=O)/C=C/[C@@H](C)CC)C(=O)N[C@H](C(=O)NC(C)(C)C(=O)N[C@@H](CC(C)C)C(=O)N[C@@H](CC(C)C)C(=O)NC(C)(C)C(=O)NC(C)(C)C(=O)NCCC(=O)N[C@@H](C)CN(C)C)[C@H](O)C(C)C,MDA-MB-453,"cell growth or viability, SRB",48 h,,GI50,0.0035 µM
CNC(=O)c1cc(Oc2ccc(NC(=O)c3cc(-c4cccc(OC(=O)CCC(=O)OC5OC6OC7(C)CCC8C(C)CCC(C5C)C68OO7)c4)ccn3)cc2)ccn1 (centres unmarked),Hep3B and LO2,"cell viability, MTT",72 h,baseline: IC50 LO2 over IC50 Hep3B,selectivity ratio,5.3
COc1ccccc1/C=C/[N+](=O)[O-],H9c2,cytotoxicity,,baseline: CC50 H9c2 over CC50 MOLM-13,selectivity ratio,30.1
CC[C@H](C)[C@H](NC(=O)[C@H](CC(N)=O)NC(=O)[C@H](CCCCN)NC(=O)[C@H](Cc1ccccc1)NC(=O)[C@H](Cc1ccccc1)NC(=O)[C@H](Cc1c[nH]cn1)NC(=O)[C@@H](NC(=O)[C@@H](NC(=O)[C@@H]1CCCN1C(=O)[C@@H](N)CC(N)=O)C(C)C)C(C)C)C(=O)N[C@H](C(=O)N[C@H](C(=O)N[C@@H](C)C(=O)O)[C@@H](C)O)C(C)C,T cell clone Ob.3D1,"T cell proliferation, agonist, [3H]thymidine incorporation","72 h, peptide-pulsed APC, added: EBV-transformed B cells DR2/DQ6 as APC",,EC50,3.8 µM
CC12OOC(C)(OO1)C2CCC(=O)OCCNc1ccnc2cc(Cl)ccc12 (centres unmarked),MOLT-4,"cell growth or viability, resazurin","10 µM, 48 h",,inhibition,37.7%
C[C@H](NC(=O)[C@@H](N)Cc1ccccc1)C(=O)NCC(=O)N[C@@H](CCCNC(=N)N)C(=O)O,HaCaT,CCK-8,"100 µg/mL, 72 h, 0.4 % serum",,viability,114 ± 8.7%
CC1CCC2C(C)C(OC(=O)CCC(=O)N(CCCc3cn(-c4ccc(C#N)cc4)nn3)CCNc3ccnc4cc(Cl)ccc34)OC3OC4(C)CCC1C32OO4 (centres unmarked),RPMI-8226,"cell growth or viability, resazurin","10 µM, 48 h",,inhibition,23.3%
Cc1cc2c(C(=O)Cc3ccccc3)c(O)c(O)cc2c(O)c1-c1c(C)cc2c(C(=O)Cc3ccccc3)c(O)c(O)cc2c1O,MEF wild type,annexin V/PI staining,10 µM,,cell death,80%
COCCOCCOCCOc1ccc(-n2cc(CCCN(CCNc3ccnc4cc(Cl)ccc34)C(=O)CCC(=O)OC3OC4OC5(C)CCC6C(C)CCC(C3C)C46OO5)nn2)cc1 (centres unmarked),MOLT-4,"cell growth or viability, resazurin","10 µM, 48 h",,inhibition,33.3%
CC[C@H](C)[C@H](NC(C)=O)C(=O)N[C@@H](CC(N)=O)C(=O)N[C@@H](Cc1c[nH]c2ccccc12)C(=O)N[C@@H](CCC(=O)O)C(=O)NCC(=O)N[C@H](C(=O)N[C@@H](C)C(=O)N[C@@H](Cc1c[nH]cn1)C(=O)N[C@@H](CCSC)C(=O)N[C@@H](C)C(=O)N[C@@H](CCCCN)C(=O)N[C@@H](CCCCN)C(=O)N[C@@H](CC(C)C)C(=O)N[C@@H](CC(C)C)C(N)=O)[C@@H](C)CC,human erythrocytes,haemolysis,added: Zn(II) 300 µM,,Hill coefficient,2.1 ± 0.1

# For quick reference, copied from above:
SMILES,cell line,test,conditions,how to read,measurement,value
C#CCCCNCCNc1ccnc2cc(Cl)ccc12,MOLT-4,"cell growth or viability, resazurin","10 µM, 48 h",,inhibition,0%
COc1ccccc1/C=C/[N+](=O)[O-],H9c2,cytotoxicity,,baseline: CC50 H9c2 over CC50 MOLM-13,selectivity ratio,30.1
CNC(=O)c1cc(Oc2ccc(NC(=O)c3cc(-c4ccccc4OC(=O)CCC(=O)OC4OC5OC6(C)CCC7C(C)CCC(C4C)C57OO6)ccn3)cc2)ccn1 (centres unmarked),Hep3B and LO2,"cell viability, MTT",72 h,baseline: IC50 LO2 over IC50 Hep3B,selectivity ratio,6.9
